Assay results collected from several papers.
Parts stem from different laboratories: compare values within a part only.

Block 1 — method: RNA Bind-n-Seq; molecule type: RNA; medium: in vitro; concentration: 1 µM; setting: whole 134-nt RNA, ends assumed; with: 150 mM KCl; reference: input library; direction: higher = stronger binding
Target: Ras GTPase-activating protein-binding protein 1, RRM domain (G3BP1, Homo sapiens, UniProt Q13283)
Chain of UniProt Q13283 (whole entry, looked up): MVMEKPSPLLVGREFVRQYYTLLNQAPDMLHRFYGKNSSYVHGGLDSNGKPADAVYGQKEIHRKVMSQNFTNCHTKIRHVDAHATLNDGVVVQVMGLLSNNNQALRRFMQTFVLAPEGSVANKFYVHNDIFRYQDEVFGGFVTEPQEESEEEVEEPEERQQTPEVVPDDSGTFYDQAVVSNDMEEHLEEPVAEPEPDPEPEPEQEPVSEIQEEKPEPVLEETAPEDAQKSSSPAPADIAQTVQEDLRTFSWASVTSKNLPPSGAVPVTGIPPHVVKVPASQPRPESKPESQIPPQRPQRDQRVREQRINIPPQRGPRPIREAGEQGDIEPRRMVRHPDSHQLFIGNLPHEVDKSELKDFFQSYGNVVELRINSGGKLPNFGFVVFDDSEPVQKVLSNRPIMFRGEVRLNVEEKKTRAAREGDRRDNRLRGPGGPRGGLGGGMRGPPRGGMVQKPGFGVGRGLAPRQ
All sequences stand within: GGGAGUUCUACAGUCCGACGAUC … UGGAAUUCUCGGGUGUCAAGG
Strand | log2 enrichment
CACAGACAACACGCACCCACACAGACACAGAGGGAAGGGGUUGGGAUGGGGACAGGGUGCACAGCAGUGCGGGGUAGGACCCCAGCCCCU | -0.25
UCAAGUCCUGUGCUACACAUCGUAUGUACCGAAUCGGGUUUGGGUGGGUUUGGGAAAGUAUUAUGUUACGCCGUUCGGAUCUGCACUUCC | 0.705
GUCCUGUGCUACACAUCGUAUGUACCGAAUCAAAUUUUUUUAAAUUUAAACCCCCAAAAAAGUAUUAUGUUACGCCGUUCGGAUCUGCAC | -1.49
GUCCUGUGCUACACAUCGUAUGUACCGAAUCAAACCCCCCCAAAUUUAAAUUUUUAAAAAAGUAUUAUGUUACGCCGUUCGGAUCUGCAC | -0.372
UAACUUUAGAGGAGGAUCUGAUGGAUAUGGCAGUGGACGUGGAUUUGGGGAUGGCUAUAAUGGGUAUGGAGGAGGACCUGGAGGUGACAA | -0.345
UAACUAUAGAGGAGGAUCUGAUGGAUAUGGCAGUGGACGUGGAUUUGGGGAUGGCUAUAAUGGGUAUGGAGGAGGACCUGGAGGUGGCAA | -0.585
UCUGGACAUGCAGGUGGACCAGUCAGUGCCAGAGUAAGUUGUUGUUUUCUUAAAAGAAAAAAAAAAAUGUAAAAUCAUCUAACCCUAACC | -0.0114
GUCCUGUGCUACACAUCGUAUGUACCGAAUCGGGAAAAAGGGAAAGGGAAAAAAAGGGAAAGUAUUAUGUUACGCCGUUCGGAUCUGCAC | 0.106
ACCAUUCAGGUGGGCAUCUUUGGGAAGUGGGGCAAGGGGGGGAUAGGGAGGGGGGUAACACUUUGGGAACAGGUGGUCCCAGGUCGUUUC | -0.487

Block 2 — method: RNA Bind-n-Seq; molecule type: RNA; medium: in vitro; concentration: not given; reference: input RNA pool; direction: higher = stronger binding
Target: RING finger protein unkempt homolog, zinc fingers 1-6, GST-SBP tag (UNK, Homo sapiens, UniProt Q9C0B0, residues 30-357)
Setting: RNA with constant flanks, human and mouse sites, ends assumed
All sequences stand within: GGGAGUUCUACAGUCCGACGAUC … CAACAGAGGAUUGAGCAUCA
Residues (chain): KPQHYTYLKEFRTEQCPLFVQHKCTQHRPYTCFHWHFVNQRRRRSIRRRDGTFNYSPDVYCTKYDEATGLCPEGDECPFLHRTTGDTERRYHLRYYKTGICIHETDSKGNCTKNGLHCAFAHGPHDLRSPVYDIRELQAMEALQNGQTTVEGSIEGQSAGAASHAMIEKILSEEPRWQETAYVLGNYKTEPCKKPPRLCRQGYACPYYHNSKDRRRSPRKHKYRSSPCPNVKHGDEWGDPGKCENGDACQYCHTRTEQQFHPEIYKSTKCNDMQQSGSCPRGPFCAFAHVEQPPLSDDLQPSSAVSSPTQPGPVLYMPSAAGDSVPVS
Strand | bound/input enrichment [ratio]
GGAAAUCUACAAAGGACAUCCAGCCAGCGAAGCACCCUUACAUACCAAAGAAAUAACUAUGCCCUGAACACAGCAGCUACCUAUGCGGAGCCCUACAGGCCAGUUCAGUACCGAGUCCAA | 0.281
UUCUCCAAUGUUACGCUCGCUUGCCUAGCUUUACGAAUAUUGCUUUGUUUUCUGUUUAUGCAUAGCCUUGAUUUGUUUGACUCCCCUCCCCCCAUUUACAUGCAUGCAAUCAGACAGGCC | 2.15
UCUUUUUACACAGUUAAGUUUUGUGUUAACCAUUUACUAAUUUGCUUCUCUGAUUUUUGUGGUUAGAAGGGCCAAUUUCUUUUAAUGACCACAAGCUAACAUAUUAGCAACAGGUUAAAG | 0.249
CCCCCUUUCAGGUGUGGUAUCAGUACGCUUUGAAGAAGAUGAAGACAGGAACUUGUGUUUAAUAGCAUAUCCAUUAAAAGGGGACCAUGGAACUGUGGAUAUAGUAGACAAUUCGGACUG | 0.741
GUGAACAUAACCAAAGGCAGGGGCGACAGAUCAUCUCUGAAAGUGGUGAAGGCAGCAGCCCAGGUCUUGAAUACAUUAUGGCAAUAUCGGGACCUCCGGAGCAUUUAUAAAAAGGAUGGG | 0.232
GUGUUGCACCUAGAUAGAGUGAAAAGAUACAUCGUGGAACACGUAGAUCUGGGUGCAUACUAUUAUAGAAAAUUUUUCUACCAGAAGGAACACUGGAACUAUUUUGGGGCUGAUGAGAAU | 1.15
UACUCAGACAAGUACUUCGAUGAGCACUACGAGUACCGGCAUGUCAUGUUACCCAGAGAACUCUCUAAACAAGUACCCAAAACUCAUCUGAUGUCCGAAGAGGAGUGGAGGAGACUUGGU | 0.0559
AAAGUCUUUGGAGGCACUGUGCAUAAAAAAAGUGUUAGAGAGGAUGGAGUUUUCAACAUUAGUAUGGAUAAUACGUGUUCAUUAUUCAGGGGCCUGCAGAAGGAAGAAAUUGUUUUACUU | 0.555

Block 3 — method: protein binding microarray; molecule type: double-stranded DNA, one strand shown; medium: in vitro; concentration: not given; reference: not given; direction: higher = stronger binding
Target: Histone acetyltransferase KAT6A, winged helix 2, GST fusion (KAT6A, Homo sapiens, UniProt Q92794, residues 85-181)
Setting: 8-mer, flanks averaged, mean of 2 arrays, mostly near background
Target sequence (chain): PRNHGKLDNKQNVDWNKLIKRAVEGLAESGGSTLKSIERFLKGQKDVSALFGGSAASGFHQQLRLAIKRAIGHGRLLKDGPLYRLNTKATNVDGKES
Strand | E-score
CTGAAACA | 0.193
AACTAGCA | 0.0614
GATGTAAC | -0.0925
GACCGGCC | 0.136
GCCCATCA | -0.122
TATCGCCA | 0.0448
CCCACGAA | 0.0868
ACAGGCAA | 0.0209
CGAAGGCA | 0.128
AAACTCGG | 0.0518
GCATGCAC | -0.0493
ATATCATG | -0.0148
CATTACCC | -0.243
ATACCTTC | -0.129
AGAATCAG | 0.0368
CCTATGAA | -0.181
TGGTCGAA | -0.115
CTATTAGA | -0.042
CGGGTGAA | 0.114
GCGGTGTA | 0.048
GCCTGATA | 0.0106
TGATCGAA | 0.0496
AGGTACGC | -0.0222

Block 4 — method: protein-binding microarray; molecule type: double-stranded DNA, one strand shown; medium: in vitro; concentration: 2540 nM top; setting: 60-bp whole probe; with: salmon DNA 0.4 mg/ml; reference: random background probes; direction: higher = stronger binding; all sequences stand within: GCCTAGCAC … GTCTTGATTCGCTTGACGCTGCTG
Target: Interferon regulatory factor 3, full length, phosphomimetic (IRF3, Homo sapiens, UniProt Q14653, residues 1-427, S386D/S396D/S398D/S402D/T404D/S405D)
Chain of UniProt Q14653 (whole entry, unmodified, looked up): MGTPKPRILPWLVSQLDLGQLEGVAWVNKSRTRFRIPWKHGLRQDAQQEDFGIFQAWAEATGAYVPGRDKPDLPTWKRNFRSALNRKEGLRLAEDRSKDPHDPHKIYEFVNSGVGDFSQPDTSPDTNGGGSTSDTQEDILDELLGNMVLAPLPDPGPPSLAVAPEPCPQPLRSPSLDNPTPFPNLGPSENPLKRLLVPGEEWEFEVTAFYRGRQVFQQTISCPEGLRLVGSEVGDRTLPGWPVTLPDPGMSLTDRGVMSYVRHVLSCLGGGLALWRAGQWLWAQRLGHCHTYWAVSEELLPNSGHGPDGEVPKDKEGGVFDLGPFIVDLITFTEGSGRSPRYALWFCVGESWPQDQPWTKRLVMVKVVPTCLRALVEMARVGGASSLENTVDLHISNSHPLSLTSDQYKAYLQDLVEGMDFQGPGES
Strand | fitted relative affinity [z-score]
AAGCCAGCCAAGGCCACTGTGTGCTAG | -1.5
GACGATATCAGCTTCGAGACGTGCTAG | 0.267
TTAGGTCTCAGTTTCGGTTAGTGCTAG | 5.39
GACGGACTGCATTTCCTGACGTGCTAG | -0.0377
TTAGGACTGAGTTTCGATTAGTGCTAG | 2.32
GACGTTATCCTTTTCCTGACGTGCTAG | 4.94
TTAGGTTTAGACTATCGGTTAGTGCTA | -0.266
ATTGCTTTCTCTTTCATTGCGTGCTAG | 3.99
TTAGCTATCCTTTTCCTTTAGTGCTAG | 5.23
TCAGGAGTCATTCTCAAACTGTGCTAG | 0.92
TTAGGTATCGGGTTTCTGTTAGTGCTA | 2.44
TCATTTCTCTGCTCTTTTACTGTGCTA | 2.37
GACGATTTCAGTGCCGAGACGTGCTAG | 0.793
TCAGTTGTGATTCTTTCACTGTGCTAG | 1.15
GGTGTAAGGAACTGAAGTGAGTGCTAG | -0.548
GACGGTCTCCTTAGCCTGACGTGCTAG | 0.834
GACGGTCTCGGCCTGGGGACGTGCTAG | -0.348
TTAGGTATCGACGATCGGTTAGTGCTA | -0.182
TTAGGTTTCGGGACTGGGTCAGTGCTA | 4.26

Excerpt of the above (block 2):
Strand | bound/input enrichment [ratio]
GGAAAUCUACAAAGGACAUCCAGCCAGCGAAGCACCCUUACAUACCAAAGAAAUAACUAUGCCCUGAACACAGCAGCUACCUAUGCGGAGCCCUACAGGCCAGUUCAGUACCGAGUCCAA | 0.281
UUCUCCAAUGUUACGCUCGCUUGCCUAGCUUUACGAAUAUUGCUUUGUUUUCUGUUUAUGCAUAGCCUUGAUUUGUUUGACUCCCCUCCCCCCAUUUACAUGCAUGCAAUCAGACAGGCC | 2.15
UCUUUUUACACAGUUAAGUUUUGUGUUAACCAUUUACUAAUUUGCUUCUCUGAUUUUUGUGGUUAGAAGGGCCAAUUUCUUUUAAUGACCACAAGCUAACAUAUUAGCAACAGGUUAAAG | 0.249
CCCCCUUUCAGGUGUGGUAUCAGUACGCUUUGAAGAAGAUGAAGACAGGAACUUGUGUUUAAUAGCAUAUCCAUUAAAAGGGGACCAUGGAACUGUGGAUAUAGUAGACAAUUCGGACUG | 0.741
GUGAACAUAACCAAAGGCAGGGGCGACAGAUCAUCUCUGAAAGUGGUGAAGGCAGCAGCCCAGGUCUUGAAUACAUUAUGGCAAUAUCGGGACCUCCGGAGCAUUUAUAAAAAGGAUGGG | 0.232
GUGUUGCACCUAGAUAGAGUGAAAAGAUACAUCGUGGAACACGUAGAUCUGGGUGCAUACUAUUAUAGAAAAUUUUUCUACCAGAAGGAACACUGGAACUAUUUUGGGGCUGAUGAGAAU | 1.15
UACUCAGACAAGUACUUCGAUGAGCACUACGAGUACCGGCAUGUCAUGUUACCCAGAGAACUCUCUAAACAAGUACCCAAAACUCAUCUGAUGUCCGAAGAGGAGUGGAGGAGACUUGGU | 0.0559
AAAGUCUUUGGAGGCACUGUGCAUAAAAAAAGUGUUAGAGAGGAUGGAGUUUUCAACAUUAGUAUGGAUAAUACGUGUUCAUUAUUCAGGGGCCUGCAGAAGGAAGAAAUUGUUUUACUU | 0.555
